{"data": "Measurements gathered from unrelated publications", "note": "Every numbered part comes from another study and shows a few of its results, in no order."}
{"data": "Set 1", "target": "Fragile X messenger ribonucleoprotein 1, C-terminal low-complexity region (Fmr1, Mus musculus, UniProt P35922)", "technique": "RNA Bind-n-Seq", "form": "RNA", "sample": "in vitro", "tested at": "200 nM", "setting": "whole 134-nt RNA, ends assumed", "with": "150 mM KCl", "baseline": "input library", "reading": "higher = stronger binding"}
{"Sequence": "GGGAGUUCUACAGUCCGACGAUCACCAUGCAAAUGGGCAUCUUUGGGAAGUGGGGCAAGGGGGGGAUAGGGAGGGGGGUAACACUUUGGGAACAGGUGGUCCCAGGUCGUUUCUGGAAUUCUCGGGUGUCAAGG", "log2 enrichment": 0.598}
{"Sequence": "GGGAGUUCUACAGUCCGACGAUCGUCCUGUGCUACACAUCGUAUGUACCGAAUCGGCCCCCCGGGCCCCCCGGCCCCCCGGGAAAGUAUUAUGUUACGCCGUUCGGAUCUGCAUGGAAUUCUCGGGUGUCAAGG", "log2 enrichment": -0.406}
{"Sequence": "GGGAGUUCUACAGUCCGACGAUCACCAUGCAGGUGGGCAUCUUUGGGAAGUGGGGCAAGGGGGGGACAGGGAGGGGGGUAACACUUUGGGAACAGGUGGUCCCAGGUCGUUUCUGGAAUUCUCGGGUGUCAAGG", "log2 enrichment": 0.709}
{"Sequence": "GGGAGUUCUACAGUCCGACGAUCUGGCCCUGGUGGCAUGCGGGGAGGAAGAGGUGGCCUCAUGGAUCGUGGUGGUCCCGGUGGAAUGUUCAGAGGUGGGCGUGGUGGAGACAGUGGAAUUCUCGGGUGUCAAGG", "log2 enrichment": 0.557}
{"data": "Set 2", "target": "Interferon regulatory factor 5, full length, phosphomimetic (IRF5, Homo sapiens, UniProt Q13568-2, residues 1-514, S451D/S453D/S456D/S462D)", "technique": "protein-binding microarray", "form": "double-stranded DNA, one strand shown", "sample": "in vitro", "tested at": "940 nM top", "setting": "60-bp whole probe", "with": "salmon DNA 0.4 mg/ml", "baseline": "random background probes", "reading": "higher = stronger binding"}
{"Sequence": "GCCTAGCACGACGGTTTCCTTATCCTGATGTGCTAGGTCTTGATTCGCTTGACGCTGCTG", "fitted relative affinity": "1.25 z-score"}
{"Sequence": "GCCTAGCACGATGATCTCAGTATCGAGACGTGCTAGGTCTTGATTCGCTTGACGCTGCTG", "fitted relative affinity": "1.97 z-score"}
{"Sequence": "GCCTAGCACTTATGTTTCGACACTGGGTTAGTGCTAGTCTTGATTCGCTTGACGCTGCTG", "fitted relative affinity": "3.74 z-score"}
{"Sequence": "GCCTAGCACCTAGATCTCAGACTGGATTAGTGCTAGGTCTTGATTCGCTTGACGCTGCTG", "fitted relative affinity": "-0.208 z-score"}
{"data": "Set 3", "target": "Sal-like protein 4, full length isoform A (SALL4, Homo sapiens, UniProt Q9UJQ4, residues 1-1053)", "technique": "universal PBM", "form": "double-stranded DNA, one strand shown", "sample": "in vitro", "tested at": "600 nM", "setting": "8-mer, flanks averaged, mean of replicates", "reading": "higher = stronger binding", "sequence of UniProt Q9UJQ4 (whole entry, looked up)": "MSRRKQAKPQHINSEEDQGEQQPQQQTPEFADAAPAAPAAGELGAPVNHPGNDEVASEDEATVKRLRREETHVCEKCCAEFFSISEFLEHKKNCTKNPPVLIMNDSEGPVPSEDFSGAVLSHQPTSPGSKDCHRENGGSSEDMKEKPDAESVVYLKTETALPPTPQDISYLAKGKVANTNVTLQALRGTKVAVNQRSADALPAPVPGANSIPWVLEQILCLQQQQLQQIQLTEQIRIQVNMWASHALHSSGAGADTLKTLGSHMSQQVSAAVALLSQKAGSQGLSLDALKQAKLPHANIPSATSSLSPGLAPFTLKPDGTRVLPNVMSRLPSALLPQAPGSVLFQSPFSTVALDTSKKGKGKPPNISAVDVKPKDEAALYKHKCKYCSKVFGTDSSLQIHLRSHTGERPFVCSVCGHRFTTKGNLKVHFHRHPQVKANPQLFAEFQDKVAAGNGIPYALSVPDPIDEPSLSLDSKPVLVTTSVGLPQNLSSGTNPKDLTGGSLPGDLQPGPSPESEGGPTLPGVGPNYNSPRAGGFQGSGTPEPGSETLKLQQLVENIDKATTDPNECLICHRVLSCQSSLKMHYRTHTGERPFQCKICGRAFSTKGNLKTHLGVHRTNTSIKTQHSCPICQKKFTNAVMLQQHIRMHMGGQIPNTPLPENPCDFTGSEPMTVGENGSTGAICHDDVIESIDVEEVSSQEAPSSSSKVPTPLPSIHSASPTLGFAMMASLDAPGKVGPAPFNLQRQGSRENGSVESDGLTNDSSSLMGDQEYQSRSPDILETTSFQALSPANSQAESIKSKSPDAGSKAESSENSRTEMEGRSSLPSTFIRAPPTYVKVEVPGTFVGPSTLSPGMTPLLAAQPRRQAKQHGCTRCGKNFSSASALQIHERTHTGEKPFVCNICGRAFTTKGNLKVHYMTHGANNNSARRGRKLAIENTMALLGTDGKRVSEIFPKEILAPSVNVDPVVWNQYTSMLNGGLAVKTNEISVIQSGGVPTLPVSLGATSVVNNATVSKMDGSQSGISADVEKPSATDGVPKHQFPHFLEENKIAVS"}
{"Sequence": "ATGGCAAC", "E-score": 0.201}
{"Sequence": "TTAACCAA", "E-score": 0.151}
{"Sequence": "GCAGACGC", "E-score": -0.245}
{"Sequence": "CTCACGCC", "E-score": -0.327}
{"Sequence": "ACGGAATC", "E-score": -0.0169}
{"Sequence": "AGCTATTC", "E-score": 0.0745}
{"data": "Single results of other studies"}
{"Molecule": "PhoQ, residues 284 288 289 292 302 303 ASASEQ", "target": "PhoP, residues 12 14 15 18 19 IQSYL (Escherichia coli, UniProt P23836)", "assay": "Sort-seq, refers to: YFP reporter", "system": "E. coli", "conditions": "PhoQ-PhoP variant library, with: 10 µM Mg2+", "how to read": "baseline: high Mg2+ state, higher = stronger signaling", "quantity": "fold induction", "result": 8.32}
{"note": "Excerpt of the above (set 1):"}
{"Sequence": "GGGAGUUCUACAGUCCGACGAUCACCAUGCAGGUGGGCAUCUUUGGGAAGUGGGGCAAGGGGGGGACAGGGAGGGGGGUAACACUUUGGGAACAGGUGGUCCCAGGUCGUUUCUGGAAUUCUCGGGUGUCAAGG", "log2 enrichment": 0.709}
